Measurements gathered from unrelated publications.
Each numbered part is a random draw from the data of one study; scales do not carry over between parts.

Block 1
Target: Interferon regulatory factor 5, full length, phosphomimetic (IRF5, Homo sapiens, UniProt Q13568-2, residues 1-514, S451D/S453D/S456D/S462D)
Technique: protein-binding microarray
Molecule type: double-stranded DNA, one strand shown
Sample: in vitro
Tested at: 940 nM top
Notes: 60-bp whole probe
Together with: salmon DNA 0.4 mg/ml
Baseline: random background probes
Reading: higher = stronger binding
Shared flanks, not repeated: GCCTAGCAC … GTCTTGATTCGCTTGACGCTGCTG
Under “fitted relative affinity”, `TTAAGTTCCCTTTTCCTTTAGTGCTAG` is recorded as 1.02 z-score.
`GACGGACTGGGACTAGGGACGTGCTAG`: “fitted relative affinity” -0.403 z-score.
For `TCAGGTATCGGGTATCGGTTAGTGCTA`, “fitted relative affinity” read 6.8 z-score.
`TTAGGACTACTTCTCCTTTAGTGCTAG` — result for “fitted relative affinity”: -0.0113 z-score.
`GACGATCTGAGACTGGAGACGTGCTAG` — result for “fitted relative affinity”: -0.492 z-score.
For `TTCTCTCCCATTCTGAATTCGTGCTAG`, “fitted relative affinity” read 1.4 z-score.
Under “fitted relative affinity”, `GACGGTTTCGTTATCCTGACGTGCTAG` is recorded as 8.8 z-score.
Under “fitted relative affinity”, `TTAGATCTCAGTTTTGATTAGTGCTAG` is recorded as 0.974 z-score.
`TTTTCTCTGGTTCTTGCTTGGTGCTAG` — result for “fitted relative affinity”: 2.34 z-score.
Under “fitted relative affinity”, `TCATCTCTCTGTGACACACTGTGCTAG` is recorded as 1.24 z-score.
Under “fitted relative affinity”, `AGCACTTTGGCATGTCTTGACGTGCTA` is recorded as -0.713 z-score.
`TCATTTTGCACTCTCTAACTGTGCTAG`: “fitted relative affinity” 1.11 z-score.
For `TGACAGAGTGAGGTTTGGGCGTGCTAG`, “fitted relative affinity” read -0.598 z-score.
For `TTAGGTCTCGGTATGGGTTAGTGCTAG`, “fitted relative affinity” read 4.86 z-score.
For `GACGTACTGGGGACTGGGGACGTGCTA`, “fitted relative affinity” read 0.238 z-score.
For `TTAGATATCGGGTTTCGATTTGTGCTA`, “fitted relative affinity” read 4.95 z-score.
Under “fitted relative affinity”, `GACGATAACAGTCTCGAGACGTGCTAG` is recorded as 0.941 z-score.
`TTAGATCTCAGTATCGATAAGTGCTAG` — result for “fitted relative affinity”: 4.22 z-score.
Under “fitted relative affinity”, `GACGGTTTCGGGACTGGGCACGTGCTA` is recorded as 5.98 z-score.
Under “fitted relative affinity”, `TCAACCATCCTATGTAGAACTGTGCTA` is recorded as -0.0152 z-score.
Under “fitted relative affinity”, `TTAGAACAGAGTATCGATTAGTGCTAG` is recorded as 3.02 z-score.
For `TTAGGACTGGACACTGGGTTCGTGCTA`, “fitted relative affinity” read -0.627 z-score.
`TATTCTCTACTTGTGTCTAGGTGCTAG`: “fitted relative affinity” 2.21 z-score.
Under “fitted relative affinity”, `TTAGGACTGGGGTCTCGGTTAGTGCTA` is recorded as 0.946 z-score.
`TCATTTTTGCTTTCTTTACTGTGCTAG`: “fitted relative affinity” 2.27 z-score.

Block 2
Target: Sal-like protein 4, full length isoform B (SALL4, Homo sapiens, UniProt Q9UJQ4-2, residues 1-616)
Technique: universal PBM
Molecule type: double-stranded DNA, one strand shown
Sample: in vitro
Tested at: not given
Notes: 8-mer, flanks averaged, mean of replicates
Reading: higher = stronger binding
The E-score of `CCAGGTAG` is reported as -0.149.
The E-score of `AATAGAGC` is reported as 0.107.
`CCTGGCAA` has an E-score of -0.148.
The E-score of `GAGAGGAC` is reported as -0.105.
For `AACATAGA`, the E-score was 0.0754.
With `CTTACCTA` the E-score was 0.0278.
For `AGAGGACC`, the E-score was -0.311.
The E-score of `CTTTAAAA` is reported as 0.232.
`ACGGCACA` gave an E-score of -0.0801.
`AACTTGGC` has an E-score of -0.0325.
For `CCAGTCTC`, the E-score was -0.28.
The E-score of `GCATGCAA` is reported as 0.0547.
With `CTACTGGC` the E-score was -0.198.
`ATGCCTTA` has an E-score of 0.125.
`ATGCCTAG` has an E-score of 0.088.
With `AAGCAACG` the E-score was -0.0622.
For `ACCGGCTA`, the E-score was -0.293.
The E-score of `ATAGCAAG` is reported as 0.167.
With `AAGATACC` the E-score was 0.114.
With `CAAAGACA` the E-score was 0.0339.
With `CAGGAGTA` the E-score was -0.0268.
With `GATATCAA` the E-score was 0.248.
The E-score of `CCATTGGG` is reported as -0.228.

Block 3
Target: Prothrombin, mature alpha-thrombin (F2, Homo sapiens, UniProt P00734)
Technique: aptamer microarray, sandwich
Molecule type: DNA with 2'F-ANA
Sample: in vitro
Tested at: 200 nM
Notes: whole 15-mer aptamer, many near background
Together with: Cy3 exosite-II aptamer, 400 nM
Reading: higher = stronger binding
Sequence: GGTTGGTGTGGTTGG
`2'F-ANA at 1 3 5 6 7 9 11 12 14`: “mean fluorescence intensity” 46.6 a.u.
For `2'F-ANA at 1 6 7 9 10 12 14`, “mean fluorescence intensity” read 96.2 a.u.
Under “mean fluorescence intensity”, `2'F-ANA at 2 3 7 12 13` is recorded as 1130 a.u.
Under “mean fluorescence intensity”, `2'F-ANA at 2 4 5 6 7 8 14` is recorded as 45.3 a.u.
For `2'F-ANA at 9 11 13`, “mean fluorescence intensity” read 458 a.u.
`2'F-ANA at 1 2 4 5 7 8 9 10 12 15` — result for “mean fluorescence intensity”: 49.4 a.u.
`2'F-ANA at 2 4 6 8 9 10 11 12 15` — result for “mean fluorescence intensity”: 132 a.u.
For `2'F-ANA at 5 9 14`, “mean fluorescence intensity” read 45.9 a.u.
`2'F-ANA at 4 6 7 8 11 12 15`: “mean fluorescence intensity” 427 a.u.
`2'F-ANA at 4 5 14 15` — result for “mean fluorescence intensity”: 43.2 a.u.
Under “mean fluorescence intensity”, `2'F-ANA at 1 2 5 6 7 11 12 15` is recorded as 79.3 a.u.
For `2'F-ANA at 2 7 8 9 10 13 14 15`, “mean fluorescence intensity” read 87.7 a.u.
`2'F-ANA at 1 3 8 9 10 13 14`: “mean fluorescence intensity” 59.7 a.u.
`2'F-ANA at 1 4 9 10 11 12 13`: “mean fluorescence intensity” 50.8 a.u.
`2'F-ANA at 1 2 3 4 5 8 9 11 12 13` — result for “mean fluorescence intensity”: 66.8 a.u.
For `2'F-ANA at 1 3 5 6 7 14 15`, “mean fluorescence intensity” read 44.9 a.u.
For `2'F-ANA at 1 2 3 4 5 7 8 9 10 12 14`, “mean fluorescence intensity” read 48.2 a.u.
Under “mean fluorescence intensity”, `2'F-ANA at 1 3 8 10` is recorded as 85.6 a.u.
For `2'F-ANA at 1 2 3 7 8 11 15`, “mean fluorescence intensity” read 235 a.u.
For `2'F-ANA at 1 4 5 6 8 10 11`, “mean fluorescence intensity” read 49.4 a.u.

Block 4
Target: Histone acetyltransferase KAT6A, winged helix 1, GST fusion (KAT6A, Homo sapiens, UniProt Q92794, residues 1-85)
Technique: protein binding microarray
Molecule type: double-stranded DNA, one strand shown
Sample: in vitro
Tested at: not given
Notes: 8-mer, flanks averaged, mean of 2 arrays, mostly near background
Baseline: not given
Reading: higher = stronger binding
Residues (chain): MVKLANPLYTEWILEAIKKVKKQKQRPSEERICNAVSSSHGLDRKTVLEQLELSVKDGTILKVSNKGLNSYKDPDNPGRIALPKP
The E-score of `ACGCAGAC` is reported as 0.00517.
The E-score of `CTGGACAG` is reported as -0.148.
With `GCGAAAGC` the E-score was 0.204.
For `ATTCGGTG`, the E-score was -0.199.
For `AAGAGACA`, the E-score was -0.0983.
The E-score of `ACTGTACG` is reported as 0.0848.
`GGGTGTAC` gave an E-score of 0.0511.
`ATTGTTCA` gave an E-score of -0.112.
With `ATCCAGCG` the E-score was 0.177.
The E-score of `CATCCCTC` is reported as -0.13.
With `CCACGGTA` the E-score was 0.283.
`GATTCTGC` has an E-score of -0.113.
For `TGCATAAA`, the E-score was -0.208.
`GCCCGAAC` gave an E-score of 0.0573.
For `CTCGTGGC`, the E-score was 0.0291.
The E-score of `AGTAGCAA` is reported as -0.0202.
For `CGATCCGA`, the E-score was 0.0978.
With `ATCGATAA` the E-score was 0.148.
The E-score of `CCGGTTCG` is reported as 0.141.
`AGTTTTTC` gave an E-score of -0.0327.
With `AGTCCTCG` the E-score was -0.283.
For `GATTTAGC`, the E-score was -0.0291.
With `ACGTTGGC` the E-score was -0.104.
`TAGCCCGA` gave an E-score of 0.052.
The E-score of `AATTCCCG` is reported as 0.274.

Some of these lines once more (block 3):
For `2'F-ANA at 9 11 13`, “mean fluorescence intensity” read 458 a.u.
`2'F-ANA at 4 5 14 15` — result for “mean fluorescence intensity”: 43.2 a.u.
`2'F-ANA at 1 3 5 6 7 9 11 12 14`: “mean fluorescence intensity” 46.6 a.u.
For `2'F-ANA at 1 3 5 6 7 14 15`, “mean fluorescence intensity” read 44.9 a.u.
`2'F-ANA at 1 3 8 9 10 13 14`: “mean fluorescence intensity” 59.7 a.u.
Under “mean fluorescence intensity”, `2'F-ANA at 2 3 7 12 13` is recorded as 1130 a.u.
Under “mean fluorescence intensity”, `2'F-ANA at 1 2 5 6 7 11 12 15` is recorded as 79.3 a.u.
`2'F-ANA at 1 4 9 10 11 12 13`: “mean fluorescence intensity” 50.8 a.u.
For `2'F-ANA at 2 7 8 9 10 13 14 15`, “mean fluorescence intensity” read 87.7 a.u.
